Measured values from different studies.
Compare with care: the assays were run in different laboratories.
Organism: Acinetobacter baumannii

Compound = CC(C)C(O)C(NC(=O)[C@H](Cc1ccc(O)cc1)NC(=O)C(Cc1ccc(O)c(Cl)c1)[N+](C)(C)C)C(=O)N[C@@H](C)C(=O)O (stereo partly shown); system = ATCC 19606; MIC = > 100 µM
Compound = CC1=C[C@@]2(C)C(=C(C)[C@H]3[C@@H]4C[C@H](C)C[C@H](C)[C@H]4[C@H]4Oc5ccc(cc5)C[C@]5(O)NC(=O)[C@]6(O[C@H]65)C(=O)[C@@H]2[C@@H]43)[C@H]1C; test = broth microdilution; system = ATCC BAA-1605; setting = together with: colistin 0.1 µM; MIC = 3.1 µM
Compound = CCOC(=O)c1ccc2c(c1)n(CC)[c]([Au-][Cl])[n+]2CC; test = broth dilution; system = DSM 30007; setting = 20 h, 37 °C; MIC = 16.7 µM
Compound = CCn1cc(C(=O)NCCNCCO)c(=O)c2cc(OC)c(OCc3cccc(F)c3)cc21; system = ATCC 19606; scale = ≥80% growth inhibition; MIC = < 0.25 µg/mL
Compound = COc1ccc2ccc3c(c2c1)C=[N+]1C2CCCCC2[N+]2=Cc4c(C)cccc4[O][Au-]21[O]3.F[P-](F)(F)(F)(F)F (stereo not shown); test = bacterial growth, broth microdilution; system = carbapenem-resistant clinical isolate; setting = 24 h; MIC = > 20 µM
Compound = CC(C)C[C@H](NC(=O)[C@H](CC(N)=O)NC(=O)[C@H](CCCNC(=N)N)NC(=O)[C@@H](CC(C)C)NC(=O)[C@H](Cc1ccc(-c2ccccc2)cc1)NC(=O)[C@H](CC(=O)O)NC(=O)[C@H](CCCCN)NC(=O)[C@@H](CC(C)C)NC(=O)[C@H](CCCNC(=N)N)NC(=O)[C@H](CCC(N)=O)NC(=O)[C@@H](NC(=O)[C@@H](CC(C)C)NC(=O)[C@H](CCCNC(=N)N)NC(=O)[C@H](CCCCN)NC(=O)[C@H](Cc1ccc(-c2ccccc2)cc1)NC(=O)CN)C(C)C)C(=O)N[C@H](C(N)=O)C(C)C; test = broth microdilution; system = B2367-12; MIC = 3.1 µM
Compound = CC(=O)N[C@H](CCCCN)C(=O)N[C@H](CC(C)C)C(=O)N[C@H](CCCCN)C(=O)N[C@H](CO)C(=O)N[C@H](CC(C)C)C(=O)N[C@H](CC(C)C)C(=O)N[C@H](CCCCN)C(=O)N[C@@H](C(=O)N[C@H](CC(C)C)C(=O)N[C@H](CO)C(=O)N[C@H](CCCCN)C(=O)N[C@H](C)C(=O)N[C@H](CCCCN)C(=O)N[C@H](CCCCN)C(=O)N[C@H](CCCCN)C(=O)N[C@H](CCCCN)C(=O)N[C@H](CC(C)C)C(=O)N[C@H](CCCCN)C(=O)N[C@@H](C(=O)N[C@H](CC(C)C)C(=O)N[C@H](CC(C)C)C(=O)N[C@H](CCCCN)C(=O)N[C@H](C)C(=O)N[C@H](CC(C)C)C(=O)N[C@H](CO)C(=O)N[C@H](CCCCN)C(N)=O)[C@H](C)O)[C@H](C)O; system = 649, Mueller-Hinton broth; setting = 24 h, 37 °C; MIC = 0.3 µM
Compound = Nc1nc(-c2ccc3nc(-c4ccccc4)[nH]c3c2)c[nH]1; test = microbial growth, broth dilution; system = AB5075; MIC = ≥ 200 µM
Compound = COc1ccc2ccc3c(c2c1)C=[N+]1C2CCCCC2[N+]2=Cc4cccc(OC)c4[O][Au-]21[O]3.F[P-](F)(F)(F)(F)F (stereo not shown); test = bacterial growth, broth microdilution; system = carbapenem-resistant clinical isolate; setting = 24 h; MIC = 20 µM
Compound = CCCCCCCNS(=O)(=O)c1ccc(-n2nnc(/C(C)=N/NC(=N)N)c2C)cc1; test = broth microdilution; system = AB5075; setting = 18 to 20 h, 37 °C; MIC = > 64 µg/mL
